Published values from different studies.
Every numbered part comes from another study and shows a few of its results, in no order. Changes are numbered by the printed parent chain.

Sample 1 — target: CCNE2, cyclin fold, Cln2 fusion (human); technique: yeast growth competition, sequencing; medium: yeast; setting: strong parent motif; baseline: not given; direction: higher = stronger binding
Parent: GMNC docking peptide (human); KNAKRNLSSEFAN
Change	normalised enrichment score
F11V	0.343
N2L	0.855
R5W	0.576
N2I	0.834
A12W	1.16
K4E	-0.296
S9P	0.879
K4V	2.26
N6M	0.533
R5I	0.364
S8F	2.12
N6R	0.799
N6H	0.567
N2A	0.799
A3C	1.4
S8N	1.7
K4C	2.36
R5Y	0.29
F11G	0.256

Sample 2 — target: FOSL1, bZIP domain (human); technique: DHFR protein complementation; medium: yeast; baseline: wild-type JUN-FOS pair; direction: higher = stronger binding
Setting: single substitutions, most at no-binding floor
Parent: JUN, bZIP domain (human); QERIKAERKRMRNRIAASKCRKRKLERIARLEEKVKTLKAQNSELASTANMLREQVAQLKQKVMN; partner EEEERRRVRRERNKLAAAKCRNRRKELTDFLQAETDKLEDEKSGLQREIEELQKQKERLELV
Change	binding fitness [natural log]
A46F	-0.68
N42D	-1.55
V35E	-1.33
V35C	-0.549
V56L	-0.887
L45G	-1.3
I28K	-0.737
L31V	-1.27
K39T	-0.503
Q55L	-0.682
E54Q	-0.743
T37N	-0.264
E44L	-0.551
E33W	-0.69
N42Y	-1.18
K36W	-0.787
S47K	-0.133
I28R	-0.626
V56M	-1.18
A49Q	-1.15
E33D	-0.451
Q55T	-0.543
Q55M	-0.608
T37R	-0.382
L38H	-1.39

Sample 3 — technique: universal PBM; molecule type: double-stranded DNA, one strand shown; medium: in vitro; concentration: 600 nM; direction: higher = stronger binding
Target: Sal-like protein 4, full length isoform A (SALL4, Homo sapiens, UniProt Q9UJQ4, residues 1-1053)
Chain of UniProt Q9UJQ4 (whole entry, looked up): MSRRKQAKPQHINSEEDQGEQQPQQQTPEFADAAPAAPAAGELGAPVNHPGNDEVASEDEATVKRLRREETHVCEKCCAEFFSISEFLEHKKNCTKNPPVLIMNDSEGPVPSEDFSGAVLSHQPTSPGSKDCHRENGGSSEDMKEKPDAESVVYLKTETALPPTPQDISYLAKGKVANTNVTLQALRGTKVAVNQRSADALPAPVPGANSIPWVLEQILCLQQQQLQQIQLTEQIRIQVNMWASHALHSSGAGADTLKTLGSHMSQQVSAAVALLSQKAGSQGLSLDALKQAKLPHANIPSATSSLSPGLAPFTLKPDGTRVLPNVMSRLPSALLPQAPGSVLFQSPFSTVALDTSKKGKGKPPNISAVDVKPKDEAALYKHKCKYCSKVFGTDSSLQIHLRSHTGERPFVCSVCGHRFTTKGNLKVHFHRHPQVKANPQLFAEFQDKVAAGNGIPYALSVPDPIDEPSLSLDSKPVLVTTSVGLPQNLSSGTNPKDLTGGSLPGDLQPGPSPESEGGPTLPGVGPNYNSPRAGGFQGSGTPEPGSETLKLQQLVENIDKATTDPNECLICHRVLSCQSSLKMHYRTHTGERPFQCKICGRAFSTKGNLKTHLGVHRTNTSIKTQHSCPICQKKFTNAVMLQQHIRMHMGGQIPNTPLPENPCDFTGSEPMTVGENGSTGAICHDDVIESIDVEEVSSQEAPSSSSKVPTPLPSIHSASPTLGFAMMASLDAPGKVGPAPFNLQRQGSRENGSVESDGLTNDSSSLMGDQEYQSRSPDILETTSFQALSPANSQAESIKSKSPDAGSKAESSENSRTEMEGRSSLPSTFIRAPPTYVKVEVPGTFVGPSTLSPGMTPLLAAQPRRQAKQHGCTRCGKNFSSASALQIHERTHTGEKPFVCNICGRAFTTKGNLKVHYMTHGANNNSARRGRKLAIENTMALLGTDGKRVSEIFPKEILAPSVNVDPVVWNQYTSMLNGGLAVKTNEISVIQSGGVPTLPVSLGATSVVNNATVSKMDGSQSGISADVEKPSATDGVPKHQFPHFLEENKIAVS
Setting: 8-mer, flanks averaged, mean of replicates
Strand	E-score
ATACAGGG	0.147
ACACCATC	-0.026
CTTGACCA	0.00615
CATCTCGG	-0.0456
CCGAGGGC	-0.301
GCGAAGAC	-0.28
AGGAACGC	-0.258
AAGAAGCA	0.0402
CAGCTAAG	-0.192
ATCCTAGG	-0.173
AGGTGGCG	-0.26
AGATGTCG	-0.0467
GTACGGGA	-0.0826
AGACCGAC	-0.229
CCTGTTAG	0.0137
AGGCCCTG	-0.279
TCTACACA	0.0472
AAACTCGG	-0.0933
CAACATAC	0.211
GCGTCAGA	-0.191
ACATCTGG	0.00419
AAGCCTGA	-0.0358
CGAAGTCC	-0.127
CATAGCAG	0.0407
CCGAGATA	-0.00976

Sample 4 — technique: protein binding microarray; molecule type: double-stranded DNA, one strand shown; medium: in vitro; concentration: not given; baseline: not given; direction: higher = stronger binding
Target: Histone acetyltransferase KAT6A, winged helix 2, GST fusion (KAT6A, Homo sapiens, UniProt Q92794, residues 85-181)
Setting: 8-mer, flanks averaged, mean of 2 arrays, mostly near background
Construct (chain): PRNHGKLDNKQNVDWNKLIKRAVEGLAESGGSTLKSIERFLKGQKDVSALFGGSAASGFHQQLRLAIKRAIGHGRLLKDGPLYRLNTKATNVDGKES
Strand	E-score
ATCATTTC	0.107
CGGCCCAG	0.0909
TCACGGCA	-0.00914
CGTGCCAC	-0.000375
CGTTGTCA	-0.145
AGAGCGGA	-0.0253
GGAAATTA	-0.0289
GGACGAAA	0.13
ATAACGTG	-0.206
CTGCTGGA	0.082
ACTCGGAC	0.156
CTACTTGA	-0.171
ATGAACGG	-0.136
AAGATGTG	-0.0699
GTTTTAAA	0.114
GGAACACC	0.00883
CCCTGTCA	-0.0387
AAATGGAC	0.0344
GACGCGGA	0.203
GTTAGTGA	-0.135
AGGCCATC	-0.0525
ATGCGCTA	-0.115
GTAATTGA	0.00893
ACATTTGG	-0.244
CTTTTTCA	-0.00751

Sample 5 — technique: RNA Bind-n-Seq; molecule type: RNA; medium: in vitro; concentration: 90 pmol; setting: 4-mer, random 30-nt RNA, single round; baseline: input library; direction: higher = stronger binding
Target: Eukaryotic initiation factor 4A-I (EIF4A1, Homo sapiens, UniProt P60842, residues 1-406, full length assumed)
Chain of UniProt P60842 (whole entry, looked up): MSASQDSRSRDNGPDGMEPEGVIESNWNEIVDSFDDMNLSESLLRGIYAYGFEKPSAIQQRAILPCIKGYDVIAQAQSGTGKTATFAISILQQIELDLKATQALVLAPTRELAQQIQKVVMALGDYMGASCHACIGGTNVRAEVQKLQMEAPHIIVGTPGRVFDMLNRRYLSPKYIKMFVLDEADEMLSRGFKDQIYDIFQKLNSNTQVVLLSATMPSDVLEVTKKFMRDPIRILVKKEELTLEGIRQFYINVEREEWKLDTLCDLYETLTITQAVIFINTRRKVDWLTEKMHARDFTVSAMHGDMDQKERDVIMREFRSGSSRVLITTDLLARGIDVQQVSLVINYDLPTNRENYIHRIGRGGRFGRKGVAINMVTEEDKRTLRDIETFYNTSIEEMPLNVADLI
With: 3 µM iPr-DMDA-PatA, 2 mM ADP, 2 mM phosphate
Strand	4-mer enrichment [fold]
AUGC	0.922
UAUA	1.36
UCCC	0.997
AACU	1.25
CUUA	1.08
ACGU	1.01
GCUC	0.826
AGAA	1.53
AGCU	0.966
GCUG	0.726
UCUG	0.917
ACCC	1.12
AGAC	1.3
GGAA	1.03

Sample 6 — technique: DHFR PCA, deep sequencing; medium: yeast; with: (+)-ABA 200 µM; baseline: wild-type fitted maximum; direction: higher = stronger binding
Target: ABI1, truncated, D143A, DHFR fusion (Arabidopsis thaliana)
Setting: methotrexate growth selection, single substitutions
Parent: PYL1, truncated, DHFR fusion (Arabidopsis thaliana); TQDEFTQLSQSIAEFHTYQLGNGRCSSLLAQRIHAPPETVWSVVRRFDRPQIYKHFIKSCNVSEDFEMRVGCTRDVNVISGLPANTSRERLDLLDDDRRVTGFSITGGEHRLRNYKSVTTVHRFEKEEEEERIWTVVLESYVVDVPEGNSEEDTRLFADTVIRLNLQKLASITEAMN
Change	relative binding score [%]
V40K	-7.31
Y115P	-1.87
V44F	-5.23
T86K	93.9
D65V	88.6
L169H	-8.61
S140W	2.05
G102D	0.554
G71N	83.3
L112V	38.5
L82F	67
V118N	83.5
V161K	-10.3
P146F	14.6
K116Q	109
L164E	74.2
L112N	-3.19
E147C	94.5

Excerpt of the above (sample 6):
Change	relative binding score [%]
G71N	83.3
S140W	2.05
V44F	-5.23
L112N	-3.19
L82F	67
L169H	-8.61
V40K	-7.31
D65V	88.6
V118N	83.5
L164E	74.2
G102D	0.554
V161K	-10.3
K116Q	109
P146F	14.6
